Measured values gathered from unrelated publications.
Protocols differ between the studies behind these lines. “And” joins repeats or separate records; there may be more than shown.
Target: Tyrosine-protein kinase Fer (FER, Homo sapiens, UniProt P16591)
Chain of UniProt P16591 (whole entry, looked up): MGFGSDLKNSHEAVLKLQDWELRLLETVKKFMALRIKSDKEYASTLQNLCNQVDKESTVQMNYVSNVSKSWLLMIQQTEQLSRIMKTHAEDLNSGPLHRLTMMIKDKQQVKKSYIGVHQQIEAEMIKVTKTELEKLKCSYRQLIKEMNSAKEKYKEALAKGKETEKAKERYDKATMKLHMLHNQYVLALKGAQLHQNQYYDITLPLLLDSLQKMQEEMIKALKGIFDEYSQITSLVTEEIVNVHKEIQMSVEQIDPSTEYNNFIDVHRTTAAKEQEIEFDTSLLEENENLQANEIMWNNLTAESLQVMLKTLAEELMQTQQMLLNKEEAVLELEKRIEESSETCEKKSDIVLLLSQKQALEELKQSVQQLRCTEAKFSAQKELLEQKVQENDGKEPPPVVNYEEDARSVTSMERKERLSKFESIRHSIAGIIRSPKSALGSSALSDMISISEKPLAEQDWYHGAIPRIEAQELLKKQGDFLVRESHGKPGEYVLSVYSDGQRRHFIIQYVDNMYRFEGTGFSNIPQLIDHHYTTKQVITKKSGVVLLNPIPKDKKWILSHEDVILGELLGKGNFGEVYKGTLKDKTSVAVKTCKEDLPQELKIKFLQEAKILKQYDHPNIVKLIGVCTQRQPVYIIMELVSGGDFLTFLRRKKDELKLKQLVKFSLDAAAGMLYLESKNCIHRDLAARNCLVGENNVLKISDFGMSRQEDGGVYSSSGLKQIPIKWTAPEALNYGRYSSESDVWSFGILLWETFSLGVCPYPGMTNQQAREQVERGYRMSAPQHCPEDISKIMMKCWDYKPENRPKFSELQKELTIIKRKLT

With `Nc1ncc(-c2cc(-c3cnn(CC(F)(F)F)c3)ncc2F)nc1C(=O)NC1CNCC(F)C1` (stereo not shown) the remaining activity was 93.1% (enzyme activity; 1 µM; reference: DMSO control).
With `CN1CC[C@@H](COc2cnc(C#N)cc2-c2ccn3nc(NC(=O)C4CC4)cc3c2)C1` the inhibition was 10% (enzyme activity, inhibitor; 1 µM).
`NC(=O)[C@@H](O)C[C@H]1CCc2sc3ncnc(O[C@H]4CC[C@H](N5CCOCC5)CC4)c3c21` has an inhibition of 29% (enzyme activity, inhibitor; 10 µM).
With `Cc1cnc2nc1Nc1cccc(c1)COC/C=C/COCc1cc(ccc1OCCN1CCOCC1)N2` the remaining binding was 99% (binding; 0.1 µM).
`COc1cc(Nc2nccc(-c3cnn4nc(OC)ccc34)n2)cc(C(F)(F)F)c1` gave a remaining binding of 98% (binding, competition with immobilised ligand; 1 µM).
With `CNC(=O)C1CCN(c2cc(C)c(F)cc2NC(=O)c2ccc(-c3cc(O)ccc3C)c(C)c2)CC1` the remaining binding was 100% (binding, competition with immobilised ligand; 1 µM).
With `COc1c(OCCCN2CCOCC2)ccc2c1N=C(NC(=O)c1cnc(N)nc1)N1CCN=C21` the remaining activity was 97% (kinase activity, inhibitor; 1 µM; reference: untreated control).
`Nc1ncc2c(n1)-c1c([nH]c3ccc(C4=CCOCC4)cc13)CCC2` gave a remaining binding of 100% (binding, competition with immobilised ligand; 1 µM).
`CC(C)=CC1OC(C)(C)C2C=C3C(=O)C(Cl)=CC(O)C3C3C(O)C4OC4C(=O)C132` (stereo not shown) gave a remaining binding of 97% (cell-free assay, competition with immobilised ligand; 10 µM).
`O=C=[N][Ru-4]123([n]4c5ccc(O)cc5c5c6c(c7cc(F)c[n+]1c7c54)C(=O)NC6=O)[S+]1CC[S+]2CC[S+]3CC1` (stereo not shown) has a remaining activity of 101% (enzyme activity; 100 nM, human enzyme, with: 10 µM ATP; reference: untreated).
`C[C@H](c1ccccc1)N1C(=O)C2=Nc3cccc(Cl)c3CN2C1=S` gave an inhibition of at least 85% (enzyme activity, inhibitor; 1.5 µM).
`C[C@H]1CN(C(=O)c2cn(-c3ccnc(N)n3)c3cc(C#CC4(O)CCCCC4)ccc23)CCN1` has an inhibition of 85% (enzyme activity, inhibitor, FRET; 1 µM).
For `CN1CCN(Cc2ccc(-c3ccc(CO[C@H]4CCC[C@@H]4NC(=O)c4cc(-c5cnn(C)c5)cnc4N)cc3)cc2)CC1`, the inhibition was 0% (enzyme activity, inhibitor; 0.1 µM).
With `Cc1cccc(O[C@H]2CCC[C@@H](C(C)CNCc3ccncc3)C2)c1` (relative stereo) the inhibition was -3% (cell-free assay, inhibitor; 1 µM).
`COCC12C(=O)NC3C4(C(OC)CC1O)C1CC5(O)C(OC)C(O)C(OC(C)=O)(C1C5OC(=O)c1ccccc1)C3(O)C(OC)C24` (stereo not shown) has a remaining activity of 98% and 97% (kinase activity, inhibitor, ProQinase kinase profiling; 25 µM; reference: control).
For `C=CC(=O)Nc1cccc(-c2cnc3[nH]cc(C(=O)NC(C)(C)C)c3n2)c1`, the inhibition was 13% (enzyme activity, inhibitor; 0.1 µM).
